{"data": "Measured values gathered from unrelated publications", "note": "Numbered parts are unrelated; each lists some results of a single study. Substitutions count along the parent as printed."}
{"data": "Study 1", "target": "Interferon regulatory factor 3, full length, phosphomimetic (IRF3, Homo sapiens, UniProt Q14653, residues 1-427, S386D/S396D/S398D/S402D/T404D/S405D)", "method": "protein-binding microarray", "form": "double-stranded DNA, one strand shown", "sample": "in vitro", "concentration": "2540 nM top", "notes": "60-bp whole probe", "together with": "salmon DNA 0.4 mg/ml", "reference": "random background probes", "direction": "higher = stronger binding", "shared flanks, not repeated": "GCCTAGCAC … GTCTTGATTCGCTTGACGCTGCTG", "Residues (chain)": "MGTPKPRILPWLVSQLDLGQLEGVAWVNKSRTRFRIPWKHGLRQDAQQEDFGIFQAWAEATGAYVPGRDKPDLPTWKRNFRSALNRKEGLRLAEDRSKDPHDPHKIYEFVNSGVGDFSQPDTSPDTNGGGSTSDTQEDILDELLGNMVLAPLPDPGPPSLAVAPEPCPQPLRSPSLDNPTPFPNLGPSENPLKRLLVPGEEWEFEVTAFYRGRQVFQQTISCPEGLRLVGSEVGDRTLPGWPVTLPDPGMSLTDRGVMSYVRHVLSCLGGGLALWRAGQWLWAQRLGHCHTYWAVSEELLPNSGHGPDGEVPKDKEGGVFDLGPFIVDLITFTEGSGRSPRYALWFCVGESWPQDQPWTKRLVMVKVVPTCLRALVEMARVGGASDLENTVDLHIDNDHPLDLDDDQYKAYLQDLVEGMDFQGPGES"}
{"Strand": "TTAGGTTTACTTTCCCTTTAGTGCTAG", "fitted relative affinity [z-score]": 7.19}
{"Strand": "TGCTGTGTGCATCTATCTTAGTGCTAG", "fitted relative affinity [z-score]": -0.438}
{"Strand": "GAAAATTTCTTCCTCCCCCTGTGCTAG", "fitted relative affinity [z-score]": 0.243}
{"Strand": "ACCTTTGTTTTTTTCTATATGTGCTAG", "fitted relative affinity [z-score]": 1.56}
{"Strand": "TTAGGTCTCAGACTGGATTAGTGCTAG", "fitted relative affinity [z-score]": 0.0552}
{"Strand": "GTCTCTATCAAAAATACAAAAGTGCTA", "fitted relative affinity [z-score]": 0.685}
{"Strand": "ATAGGTTTCCTTTCCCTTTAGTGCTAG", "fitted relative affinity [z-score]": 10.7}
{"Strand": "TTTGAACTGGGGTTTCGATTAGTGCTA", "fitted relative affinity [z-score]": 1.38}
{"Strand": "GACGGACTGGGGGTTCGGGACGTGCTA", "fitted relative affinity [z-score]": -0.594}
{"Strand": "TTGATAATTTTTTTCTAAGTGTGCTAG", "fitted relative affinity [z-score]": -0.143}
{"Strand": "GGTCCTCTGGGCTGTTTGGCCGTGCTA", "fitted relative affinity [z-score]": -0.356}
{"Strand": "TTAGGACAGCTTCTCCTTTAGTGCTAG", "fitted relative affinity [z-score]": -0.118}
{"Strand": "GCTAGTGTGCCATATTTATCTGTGCTA", "fitted relative affinity [z-score]": 0.0676}
{"Strand": "GACGGTATCAGTCTCGAGACGTGCTAG", "fitted relative affinity [z-score]": 3.71}
{"Strand": "TCAAGTTCAGTTCTCTAACTGTGCTAG", "fitted relative affinity [z-score]": 1.42}
{"Strand": "TTAGAAATGGGGTTTCGATTAGTGCTA", "fitted relative affinity [z-score]": 1.57}
{"data": "Study 2", "target": "Sal-like protein 4, full length isoform B (SALL4, Homo sapiens, UniProt Q9UJQ4-2, residues 1-616)", "method": "universal PBM", "form": "double-stranded DNA, one strand shown", "sample": "in vitro", "concentration": "not given", "notes": "8-mer, flanks averaged, mean of replicates", "direction": "higher = stronger binding"}
{"Strand": "CGAGTAAC", "E-score": 0.0319}
{"Strand": "CTTCGGGA", "E-score": -0.0105}
{"Strand": "CGCCTTGC", "E-score": -0.0689}
{"Strand": "CCCAGGCC", "E-score": -0.392}
{"Strand": "ACTGTCTC", "E-score": -0.151}
{"Strand": "CAATTCAG", "E-score": 0.0542}
{"Strand": "AAAGGTCG", "E-score": 0.122}
{"Strand": "AACAGTCT", "E-score": 0.097}
{"Strand": "AAGTTGAG", "E-score": 0.0105}
{"Strand": "CCAAAAGA", "E-score": 0.146}
{"data": "Study 3", "target": "CCNF, cyclin fold, Cln2 fusion (human)", "method": "yeast growth competition, sequencing", "sample": "yeast", "notes": "strong parent motif", "reference": "not given", "direction": "higher = stronger binding", "parent": "SLBP docking peptide (human); ARYKRKLLINDFG"}
{"Variant": "ARYKRKVLINDFG [L7V]", "normalised enrichment score": 1.35}
{"Variant": "ARYVRKLLINDFG [K4V]", "normalised enrichment score": 1.86}
{"Variant": "ARYKRKLLINCFG [D11C]", "normalised enrichment score": 2.96}
{"Variant": "ARYKRKLLTNDFG [I9T]", "normalised enrichment score": 1.47}
{"Variant": "ARYKRKLGINDFG [L8G]", "normalised enrichment score": 1.46}
{"Variant": "ARMKRKLLINDFG [Y3M]", "normalised enrichment score": 1.57}
{"Variant": "ARYKRKILINDFG [L7I]", "normalised enrichment score": 1.02}
{"Variant": "ARYKRKLLIIDFG [N10I]", "normalised enrichment score": 2.54}
{"Variant": "ARYKHKLLINDFG [R5H]", "normalised enrichment score": 1.24}
{"Variant": "ARYKLKLLINDFG [R5L]", "normalised enrichment score": 2.44}
{"Variant": "ARYKRKLMINDFG [L8M]", "normalised enrichment score": 2.18}
{"data": "Other studies, line by line"}
{"Substance": "PhoQ, residues 284 288 289 292 302 303 SLCLSL", "target": "PhoP, residues 12 14 15 18 19 SFCSL (Escherichia coli, UniProt P23836)", "test": "Sort-seq, refers to: YFP reporter", "system": "E. coli", "setting": "PhoQ-PhoP variant library, together with: 10 µM Mg2+", "scale": "reference: high Mg2+ state, higher = stronger signaling", "quantity": "fold induction", "result": 8.59}
{"note": "A few entries again (study 1):"}
{"Strand": "GGTCCTCTGGGCTGTTTGGCCGTGCTA", "fitted relative affinity [z-score]": -0.356}
{"Strand": "TTTGAACTGGGGTTTCGATTAGTGCTA", "fitted relative affinity [z-score]": 1.38}
